# Results from different studies.
# A part holds a random share of what one study measured. “And” joins repeats or separate records; there may be more than shown. Substitutions count along the parent as printed.
# UniProt P30530, sequence (whole entry, looked up): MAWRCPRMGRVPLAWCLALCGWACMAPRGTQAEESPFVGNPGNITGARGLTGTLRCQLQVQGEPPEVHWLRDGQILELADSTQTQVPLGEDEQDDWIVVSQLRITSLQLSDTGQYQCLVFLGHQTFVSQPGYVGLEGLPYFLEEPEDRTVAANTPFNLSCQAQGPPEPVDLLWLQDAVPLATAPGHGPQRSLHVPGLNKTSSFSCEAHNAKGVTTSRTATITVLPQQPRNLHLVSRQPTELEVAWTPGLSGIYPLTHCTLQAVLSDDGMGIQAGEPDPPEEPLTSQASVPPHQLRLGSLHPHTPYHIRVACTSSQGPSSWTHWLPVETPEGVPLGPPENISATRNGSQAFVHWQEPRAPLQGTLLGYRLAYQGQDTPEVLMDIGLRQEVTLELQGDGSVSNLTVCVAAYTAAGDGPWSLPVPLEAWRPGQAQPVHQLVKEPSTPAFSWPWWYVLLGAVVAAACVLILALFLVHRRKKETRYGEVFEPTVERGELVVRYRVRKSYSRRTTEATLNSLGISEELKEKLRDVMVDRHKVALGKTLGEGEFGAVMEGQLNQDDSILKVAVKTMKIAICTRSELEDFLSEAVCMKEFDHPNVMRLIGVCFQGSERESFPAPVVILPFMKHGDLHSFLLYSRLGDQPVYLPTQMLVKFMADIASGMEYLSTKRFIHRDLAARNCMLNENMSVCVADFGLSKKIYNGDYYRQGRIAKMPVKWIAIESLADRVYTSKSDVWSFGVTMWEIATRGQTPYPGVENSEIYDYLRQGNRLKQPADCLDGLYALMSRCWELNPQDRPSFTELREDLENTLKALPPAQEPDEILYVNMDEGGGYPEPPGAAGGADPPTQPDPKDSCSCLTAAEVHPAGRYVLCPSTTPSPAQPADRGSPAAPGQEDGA
# UniProt P05979, sequence (whole entry, looked up): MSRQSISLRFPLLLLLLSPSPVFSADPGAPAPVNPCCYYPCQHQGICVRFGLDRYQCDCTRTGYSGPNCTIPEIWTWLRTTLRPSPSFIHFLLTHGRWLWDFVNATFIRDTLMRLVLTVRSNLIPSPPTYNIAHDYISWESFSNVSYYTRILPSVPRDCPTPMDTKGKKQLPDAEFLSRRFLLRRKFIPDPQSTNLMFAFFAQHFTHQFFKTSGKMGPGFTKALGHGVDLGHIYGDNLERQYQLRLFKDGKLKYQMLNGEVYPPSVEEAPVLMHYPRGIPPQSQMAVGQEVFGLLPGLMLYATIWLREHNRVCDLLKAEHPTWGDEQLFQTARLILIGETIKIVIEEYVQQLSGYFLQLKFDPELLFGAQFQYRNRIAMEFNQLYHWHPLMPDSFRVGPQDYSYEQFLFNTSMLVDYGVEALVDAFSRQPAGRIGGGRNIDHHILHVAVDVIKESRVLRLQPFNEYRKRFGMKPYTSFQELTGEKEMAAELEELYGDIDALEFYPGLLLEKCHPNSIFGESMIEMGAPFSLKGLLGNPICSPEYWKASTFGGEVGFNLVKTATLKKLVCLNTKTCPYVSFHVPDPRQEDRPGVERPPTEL
# UniProt P11229, sequence (whole entry, looked up): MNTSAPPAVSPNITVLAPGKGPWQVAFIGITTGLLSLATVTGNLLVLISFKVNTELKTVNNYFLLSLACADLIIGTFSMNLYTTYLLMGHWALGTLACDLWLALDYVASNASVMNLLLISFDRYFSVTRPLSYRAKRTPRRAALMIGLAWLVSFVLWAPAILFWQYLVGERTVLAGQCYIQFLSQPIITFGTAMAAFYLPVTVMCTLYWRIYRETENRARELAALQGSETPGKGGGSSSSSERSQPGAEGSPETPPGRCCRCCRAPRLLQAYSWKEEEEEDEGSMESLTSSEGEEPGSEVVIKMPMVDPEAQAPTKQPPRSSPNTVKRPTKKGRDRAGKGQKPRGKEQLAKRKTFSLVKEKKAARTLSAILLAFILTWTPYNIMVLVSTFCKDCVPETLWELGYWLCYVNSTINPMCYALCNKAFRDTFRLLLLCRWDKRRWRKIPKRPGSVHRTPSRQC

# Study 1 — target: vanadate, free oxyanion; method: microfluidic competitive inhibition; matrix: in vitro, cell-free expressed; tested at: not given; reading: lower = stronger binding
# Setting: derived from inhibition constants, unchanged parent 676 nM
# Parent: PafA, mature enzyme, eGFP fusion (Elizabethkingia meningoseptica, UniProt Q9KJX5); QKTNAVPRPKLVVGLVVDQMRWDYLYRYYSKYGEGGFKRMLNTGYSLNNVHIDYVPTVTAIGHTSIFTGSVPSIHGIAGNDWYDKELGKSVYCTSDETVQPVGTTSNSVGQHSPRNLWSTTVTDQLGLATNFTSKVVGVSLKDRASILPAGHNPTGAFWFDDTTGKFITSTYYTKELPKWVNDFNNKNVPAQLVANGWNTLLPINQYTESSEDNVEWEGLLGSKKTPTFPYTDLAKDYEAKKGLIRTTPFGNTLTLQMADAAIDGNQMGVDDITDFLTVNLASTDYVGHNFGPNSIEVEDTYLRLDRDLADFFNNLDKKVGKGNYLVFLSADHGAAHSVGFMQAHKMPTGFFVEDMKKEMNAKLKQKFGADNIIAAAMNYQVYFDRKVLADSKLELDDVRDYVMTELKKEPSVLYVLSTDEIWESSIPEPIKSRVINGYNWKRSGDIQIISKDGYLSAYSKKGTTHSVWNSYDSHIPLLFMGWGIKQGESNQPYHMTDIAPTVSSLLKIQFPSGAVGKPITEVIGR
Variant,oxyanion analog dissociation constant [nM]
K363V,828
T123G,665
S474V,929

# Study 2 — cell line: mouse MPNST tumor cells; method: high-content nuclear imaging; measured: cell number; tested at: 10 µM; time: 12 h; setting: mean of 2 replicates; baseline: plate mean; reading: higher = more cells
Compound,nuclei count
Cc1ccc([N+](=O)[O-])cc1S(=O)(=O)n1c(C)nc2ccccc21,0.248 z-score
C1=Cc2ccccc2C(=C2CCN(CCCCc3nn[nH]n3)CC2)c2ccccc21,1.17 z-score
CCCCCCOc1nsnc1C1=CCCN(C)C1,2.91 z-score
Nc1nc(/C(=C/CC(=O)O)C(=O)N[C@@H]2C(=O)N3C(C(=O)O)=CCS[C@H]23)cs1,0.556 z-score
Clc1ccc(COC(Cn2ccnc2)c2ccc(Cl)cc2Cl)cc1 (stereo not shown),2.04 z-score
Cc1ncc([N+](=O)[O-])n1CC(C)O (stereo not shown),0.631 z-score
CCc1ccc(CCOc2ccc(CC3SC(=O)NC3=O)cc2)nc1 (stereo not shown),2.29 z-score and -0.363 z-score
OCCOCCN1CCN(C(c2ccccc2)c2ccc(Cl)cc2)CC1 (stereo not shown),1.04 z-score

# Study 3
# SMILES: CNC(=O)c1ccc(-c2cnn3ccc(C(=O)N(C)c4ccc(Cl)c(C(=O)O)c4)cc23)cc1
target,read-out,action,IC50 [µM]
"PTGS1 (Ovis aries, UniProt P05979)",cell-free assay,,> 30
"AXL (Homo sapiens, UniProt P30530)",enzyme activity,inhibitor,> 30
"CHRM1 (Homo sapiens, UniProt P11229)",cell-free assay,,> 30

# Study 4 — method: phase 2a trial; species: idiopathic pulmonary fibrosis patients
# Compound: CC(C)n1cnc(-c2ccc(F)cc2)c1-c1ncc(C(=O)Nc2ccc(N3CCN(C)CC3)cc2)[nH]1
dose,setting,patients with proteinuria [%]
60 mg once daily,grade 4 emergent event,0
30 mg once daily,grade 4 emergent event,0
60 mg once daily,grade 3 emergent event,0
60 mg once daily,grade 5 emergent event,0
30 mg once daily,grade 5 emergent event,0

# Repeated from above (study 4):
dose,setting,patients with proteinuria [%]
60 mg once daily,grade 4 emergent event,0
